Experimental data gathered from unrelated publications.
Organism: Streptococcus pneumoniae

Structure (SMILES)	method	strain	medium	time	temperature	setting	MIC
O=C(CCCCC1CCCCC1)NP(=O)(O)O	–	–	–	–	–	–	200 µg/mL
Cc1ccc2[nH]c3c(c2c1)CCCC3NCCc1ccccc1Br (centres unmarked)	–	T4	–	–	–	C+Y medium	1.3 µg/mL
CC(C)C[C@@H](NC(=O)[C@H](C)NC(=O)CNC(=O)[C@@H](NC=O)C(C)C)C(=O)N[C@@H](C)C(=O)N[C@@H](C(=O)N[C@H](C(=O)N[C@@H](C(=O)N[C@@H](Cc1c[nH]c2ccccc12)C(=O)N[C@H](CC(C)C)C(=O)N[C@@H](Cc1ccc2cc[nH]c2c1)C(=O)N[C@H](CC(C)C)C(=O)N[C@@H](Cc1c[nH]c2ccccc12)C(=O)N[C@H](CC(C)C)C(=O)N[C@@H](Cc1c[nH]c2ccccc12)C(=O)NCCO)C(C)C)C(C)C)C(C)C	broth microdilution	NBRC 102642	–	–	–	–	0.0042 µM
CN[C@H](CC(C)C)C(=O)N[C@H]1C(=O)N[C@@H](CC(N)=O)C(=O)N[C@H]2C(=O)N[C@H]3C(=O)N[C@H](C(=O)N[C@H](C(=O)O)c4cc(O)cc(O)c4-c4cc3ccc4O)[C@H](O)c3ccc(c(Cl)c3)Oc3cc2cc(c3O[C@@H]2O[C@H](CO)[C@@H](O)[C@H](O)[C@H]2O[C@H]2C[C@](C)(N)[C@H](O)[C@H](C)O2)Oc2ccc(cc2Cl)[C@H]1O	broth microdilution	ATCC 49619, penicillin intermediate	–	overnight	37 °C	–	< 1 µg/mL
c1ccc(CCOC2CCCc3c2[nH]c2ccccc32)cc1 (centres unmarked)	broth microdilution	TIGR4	–	–	–	–	> 29 µg/mL
CC(C)C[C@@H](NC(=O)[C@H](C)NC(=O)CNC(=O)[C@@H](NC=O)C(C)C)C(=O)N[C@@H](C)C(=O)N[C@@H](C(=O)N[C@H](C(=O)N[C@@H](C(=O)N[C@@H](Cc1c[nH]c2ccccc12)C(=O)N[C@H](CC(C)C)C(=O)N[C@@H](Cc1ccc2[nH]ccc2c1)C(=O)N[C@H](CC(C)C)C(=O)N[C@@H](Cc1c[nH]c2ccccc12)C(=O)N[C@@H](C(=O)N[C@@H](Cc1c[nH]c2ccccc12)C(=O)NCCO)C(C)C)[C@H](C)O)C(C)C)C(C)C	broth microdilution	NBRC 102642	–	–	–	–	0.017 µM
CCCCCCCCCCCCCCCC(=O)CP(=O)(O)O	–	–	–	–	–	–	200 µg/mL
CC(C)C[C@@H](NC(=O)[C@H](C)NC(=O)CNC(=O)[C@@H](NC=O)C(C)C)C(=O)N[C@@H](C)C(=O)N[C@@H](C(=O)N[C@H](C(=O)N[C@@H](C(=O)N[C@@H](Cc1c[nH]c2ccccc12)C(=O)N[C@H](CC(C)C)C(=O)N[C@@H](Cc1cccc2cc[nH]c12)C(=O)N[C@H](CC(C)C)C(=O)N[C@@H](Cc1c[nH]c2ccccc12)C(=O)N[C@H](CC(C)C)C(=O)N[C@@H](Cc1c[nH]c2ccccc12)C(=O)NCCO)C(C)C)C(C)C)C(C)C	broth microdilution	NBRC 102642	–	–	–	–	0.033 µM
Cc1ccc2[nH]c3c(c2c1)CCCC3NCCc1ccc(Br)cc1 (centres unmarked)	broth microdilution	serotype 19A 700678	supplemented C+Y medium	–	–	–	4.8 µg/mL
CN[C@H](CC(C)C)C(=O)N[C@H]1C(=O)N[C@@H](CC(N)=O)C(=O)N[C@H]2C(=O)N[C@H]3C(=O)N[C@H](C(=O)N[C@H](C(=O)O)c4cc(O)cc(O)c4-c4cc3ccc4O)[C@H](O)c3ccc(c(Cl)c3)Oc3cc2cc(c3O[C@@H]2O[C@H](CO)[C@@H](O)[C@H](O)[C@H]2O[C@H]2C[C@](C)(N)[C@H](O)[C@H](C)O2)Oc2ccc(cc2Cl)[C@H]1O	–	penicillin-intermediate	–	–	–	–	0.25 µg/mL
CCCCCCCC(=O)NP(=O)(O)O	–	–	–	–	–	–	> 200 µg/mL
CN[C@H](CC(C)C)C(=O)N[C@H]1C(=O)N[C@@H](CC(N)=O)C(=O)N[C@H]2C(=O)N[C@H]3C(=O)N[C@H](C(=O)N[C@H](C(=O)O)c4cc(O)cc(O)c4-c4cc3ccc4O)[C@H](O)c3ccc(c(Cl)c3)Oc3cc2cc(c3O[C@@H]2O[C@H](CO)[C@@H](O)[C@H](O)[C@H]2O[C@H]2C[C@](C)(N)[C@H](O)[C@H](C)O2)Oc2ccc(cc2Cl)[C@H]1O	–	ATCC 700677, multidrug-resistant	CAMHB, lysed horse blood	–	–	–	1.5 µg/mL
CCCCCCCC/C=C\CCCCCCCC(=O)C(F)(F)P(=O)(O)O	–	–	–	–	–	–	> 200 µg/mL
CCCCCCCCCC(=O)N[C@@H](Cc1c[nH]c2ccccc12)C(=O)N[C@H](CC(N)=O)C(=O)N[C@@H](CC(=O)O)C(=O)N[C@@H]1C(=O)NCC(=O)N[C@@H](CCCN)C(=O)N[C@@H](CC(=O)O)C(=O)N[C@H](C)C(=O)N[C@@H](CC(=O)O)C(=O)NCC(=O)N[C@H](CO)C(=O)N[C@@H]([C@H](C)CC(=O)O)C(=O)N[C@@H](CC(=O)c2ccccc2N)C(=O)O[C@@H]1C	broth microdilution	ATCC 49619, penicillin intermediate	–	overnight	37 °C	–	32 µg/mL
